Results collected from several papers.
± marks the error that the study gave.

CC(C)C[C@H](NC(=O)OCc1cccc(Cl)c1)C(=O)N[C@@H](C[C@H]1CCNC1=O)C(=O)C(=O)NC1CC1
EC50 (human rhinovirus 1B; viral replication; WI-38; 37 °C): 160 ± 80 nM

O=c1ccn(CCCCCOc2ccc(Br)cc2)c(=O)n1Cc1ccc2ccccc2c1Br
EC50 (human betaherpesvirus 5; plaque formation; HEL, Davis): > 20000 nM

COC(=O)/C=C/c1ccc(OCCNS(=O)(=O)c2ccccc2)c(OC)c1
EC50 (tobacco mosaic virus; inactivation activity, half-leaf method): 198 ± 8.3 µg/mL

COc1ccc(NC(=O)N2CCCN3CCC(c4ccc(C#CC5CCCCC5)cc4)C3C2)cc1 (stereo not shown)
EC50 (Toxoplasma gondii; HFF, RH (type I)): 290 nM

O=c1ccn(CCCCCOc2ccc(Br)cc2)c(=O)n1Cc1ccccc1
EC50 (human betaherpesvirus 5; plaque formation; HEL, Davis): 15300 nM

Cc1ncnc(C)c1-c1ccc(C(=O)N2CC[C@H](C(=O)Nc3cc(F)c(F)c(F)c3)C2)[nH]1
EC50 (hepatitis B virus; viral replication, qPCR, item: intracellular HBV DNA; HepG2.2.15): 35 nM

COc1ccc(NC(=O)N2CCCN3CCC(c4ccc(C#Cc5ccccc5)cc4)C3C2)cc1 (stereo not shown)
EC50 (Toxoplasma gondii; HFF, RH (type I)): 270 nM

CCCCCCCCC1=C(CCCCCCCC(=O)O)C1
EC50 (Toxoplasma gondii; parasite-induced cytopathic effect; Vero, RH; 24 h): 36200 ± 5100 nM

CCOC(=O)/C=C/c1ccc(OCCNS(=O)(=O)c2ccc(C)cc2)c(OC)c1
EC50 (tobacco mosaic virus; inactivation activity, half-leaf method): 206 ± 2.3 µg/mL

O=C[C@H](C[C@H]1CCNC1=O)NC(=O)[C@H](CC1CCCCC1)NC(=O)OCc1ccccc1
EC50 (human rhinovirus 51; viral replication; WI-38; 37 °C): 140 ± 80 nM

CC(=O)N[C@@H]1[C@@H](OC(C)=O)[C@H](OC(C)=O)[C@@H](COC(C)=O)O[C@H]1[Se]Cc1ccc([N+](=O)[O-])cc1
EC50 (Trypanosoma brucei brucei; viability; bloodstream form; 24 h): 7690 ± 630 nM

O=C(N[C@@H](CC1CCCCC1)C(=O)N[C@@H](C[C@H]1CCNC1=O)C(=O)C(=O)NC1CC1)OCc1ccccc1
EC50 (Enterovirus D68; viral replication; WI-38; 37 °C): 40 ± 10 nM

CCCCCCCCC1=C(CCCCCCC(=O)OC)C1
EC50 (Toxoplasma gondii; parasite-induced cytopathic effect; Vero, RH; 24 h): 357000 ± 14100 nM

COC(=O)/C=C/c1ccc(OCCNS(=O)(=O)c2ccc(NC(C)=O)cc2)c(OC)c1
EC50 (tobacco mosaic virus; inactivation activity, half-leaf method): 84.8 ± 3.2 µg/mL

O=C(N[C@@H](Cc1ccccc1)C(=O)N[C@@H](C[C@H]1CCNC1=O)C(=O)C(=O)NC1CC1)OCc1ccccc1
EC50 (human rhinovirus 1B; viral replication; WI-38; 37 °C): 190 ± 160 nM

CCCCOC(=O)/C=C/c1ccc(OCCNS(=O)(=O)c2c(F)cccc2F)c(OC)c1
EC50 (tobacco mosaic virus; inactivation activity, half-leaf method): 640.2 ± 5.9 µg/mL

CC(C)C[C@H](NC(=O)OCc1cccc(Cl)c1)C(=O)N[C@H](C=O)C[C@H]1CCNC1=O
EC50 (human rhinovirus 51; viral replication; WI-38; 37 °C): 400 ± 140 nM

CCCCOC(=O)/C=C/c1ccc(OCCNS(=O)(=O)c2ccccc2F)c(OC)c1
EC50 (tobacco mosaic virus; inactivation activity, half-leaf method): 238 ± 5.5 µg/mL

Cc1ccc(NC(=O)N2CCCN3CCC(c4ccc(C#CC5CCCC5O)cc4)C3C2)cc1 (stereo not shown)
EC50 (Toxoplasma gondii; HFF, RH (type I)): 330 nM

A few entries again:
CC(=O)N[C@@H]1[C@@H](OC(C)=O)[C@H](OC(C)=O)[C@@H](COC(C)=O)O[C@H]1[Se]Cc1ccc([N+](=O)[O-])cc1
EC50 (Trypanosoma brucei brucei; viability; bloodstream form; 24 h): 7690 ± 630 nM

O=C(N[C@@H](CC1CCCCC1)C(=O)N[C@@H](C[C@H]1CCNC1=O)C(=O)C(=O)NC1CC1)OCc1ccccc1
EC50 (Enterovirus D68; viral replication; WI-38; 37 °C): 40 ± 10 nM
